Measured values gathered from unrelated publications.
Each numbered part is a random draw from the data of one study; scales do not carry over between parts. Changes are numbered by the printed parent chain.

Set 1
Target: CREB3L3, bZIP domain (human)
Method: DHFR protein complementation
Sample: yeast
Notes: single substitutions, most at no-binding floor
Relative to: wild-type JUN-FOS pair
Reading: higher = stronger binding
Endpoint: binding fitness
Starting sequence: JUN, bZIP domain (human); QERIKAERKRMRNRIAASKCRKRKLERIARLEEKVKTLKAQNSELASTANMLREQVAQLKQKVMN; partner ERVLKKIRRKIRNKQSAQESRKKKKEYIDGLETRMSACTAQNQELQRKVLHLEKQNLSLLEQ
L52I: -0.97 natural log
E44W: -1.57 natural log
A40S: -1.43 natural log
T37W: -1.16 natural log
K39D: -1.53 natural log
V35E: -1.52 natural log
L45A: -1.4 natural log
R53D: -1.51 natural log
A46E: -1.48 natural log
A40C: -1.39 natural log

Set 2
Target: RNA binding protein fox-1 homolog 2, RRM domain, GST-SBP tag (RBFOX2, Homo sapiens, UniProt O43251-10, residues 100-194)
Method: RNA Bind-n-Seq
Molecule type: RNA
Sample: in vitro
Tested at: 365 nM
Notes: natural RNA segment, single round, ends assumed
Relative to: no-protein control
Reading: higher = stronger binding
Endpoint: RBNS enrichment (R)
All sequences stand within: GGGAGUUCUACAGUCCGACGAUC … UGGAAUUCUCGGGUGCCAA
Construct (chain): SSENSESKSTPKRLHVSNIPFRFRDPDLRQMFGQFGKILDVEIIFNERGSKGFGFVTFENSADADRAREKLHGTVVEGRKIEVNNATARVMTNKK
UGGAGAUCCCAUCCUGCUACUAAGAAGUUUUCUGUACAUCACUUCCAAACAUUGGAAACUUUCAGAUCAUAAGGCAGAAUUUAGUAAUUUUGUGCUUCUGUUAAUGUCUA: 0.371
AGCUCGGGGAGCCUUAGCCGCCCAUGCACUGGGGACGCUCCGCUGCCGUGCCGCCUGCACUCCUCAGGGCAGCCUCCCCCGGCUCUACGGGGGCCGCGUGGUGCCAUCCC: 0.196
CCUUGAGUGGGAUGAGUCUUAGUGGGAAACAGUGCCGUCCGAGGUGGGAUGCGAUGAGAAGAUGUGAUCACUGCAGGCGCAGCGGCGAGUGGACAGCUGGCCGAGACCAG: 0.694
GGUCCCUGUAGGGCAAAAUUCCCAGGCGCCUUGCUGCAGACAGAGUAAGACAAAAACACCAGGAAGCAGGAUUCCGUGCCCAUCUCUGCAGUUUGGGUUCACAAAAGGGG: 0.3
GCGAAAGCACCACCCUCGAGCUGCCUUGCCUGUCAGCUGCUCCUUCGAGGCCUGUGUCUGGUGGGAGACAAGGCUGUGUGUCUCUGUGUGUGUAAACAAACGUGCACGUG: 0.371
AACGUGUAUCAUAAUGUGUAUAAUUGUGUAACAAAAUUGUCUACAAUAAAUCUUUUGGUAUUUGUGGUGGGUGUUUCUGAGUUUGAAGCAUGGUACUCAGGCAGGGUUCU: 3.24
CAAAGGAUGCAUACAGGAUAUUUUGGAGCAUCAUCCUCGAAGAAAAGUCAGUUAAACCAUUUAGUUCAUCAGGAAUAUUUAAAAUAUUCUGCAUGAAUCCGUGUGGCUGU: 0.351
CUGAAGUGAGGAUUUAGUAUUUUUUAAAAAAGCAAAACAAGGUUCAGUAGUCCUCAGCAAUUCUCCAAGUUUCUCUCUUUGCCUAAAAUGGUCAUAGAUCUUGAUUUCUC: 0.403

Set 3
Target: CCNA2, cyclin fold, Cln2 fusion (human)
Method: yeast growth competition, sequencing
Sample: yeast
Notes: strong parent motif
Relative to: not given
Reading: higher = stronger binding
Endpoint: normalised enrichment score
Starting sequence: BORA docking peptide (human); SSLRRKLFLDGNG
SSLRRKLALDGNG [F8A]: 1.56
SSLARKLFLDGNG [R4A]: 1.23
SSLRRKLFLAGNG [D10A]: 1.62
SSLRRKLFFDGNG [L9F]: 2.81
SSLRRALFLDGNG [K6A]: 2.07
SALRRKLFLDGNG [S2A]: 2.67
ASLRRKLFLDGNG [S1A]: 2.33
SSLRKKLFLDGNG [R5K]: 1.42

Further values, each from its own experiment
PhoQ, residues 284 288 289 292 302 303 NLSRDF — fold induction (PhoP, residues 12 14 15 18 19 YHFSH (Escherichia coli, UniProt P23836); Sort-seq, measured: YFP reporter; E. coli; PhoQ-PhoP variant library, together with: 10 µM Mg2+; relative to: high Mg2+ state, higher = stronger signaling): 3.45

For quick reference, copied from above (set 1):
K39D: -1.53 natural log
T37W: -1.16 natural log
A46E: -1.48 natural log
